Results pooled from the literature.
Parts stem from different laboratories: compare values within a part only.

Set 1 — method: competition protein-binding microarray; form: double-stranded DNA, one strand shown; sample: in vitro; concentration: 2 µM; with: Cbf1 competitor, 0.05 µM; direction: higher = stronger binding; constant ends, left off below: … GTCTTGATTCGCTTGACGCTGCTG
Target: Phosphate system positive regulatory protein PHO4, full length, GST-tagged (PHO4, Saccharomyces cerevisiae, UniProt P07270, residues 1-312)
Notes: whole 60-bp probe, lowest competitor level
Residues (chain): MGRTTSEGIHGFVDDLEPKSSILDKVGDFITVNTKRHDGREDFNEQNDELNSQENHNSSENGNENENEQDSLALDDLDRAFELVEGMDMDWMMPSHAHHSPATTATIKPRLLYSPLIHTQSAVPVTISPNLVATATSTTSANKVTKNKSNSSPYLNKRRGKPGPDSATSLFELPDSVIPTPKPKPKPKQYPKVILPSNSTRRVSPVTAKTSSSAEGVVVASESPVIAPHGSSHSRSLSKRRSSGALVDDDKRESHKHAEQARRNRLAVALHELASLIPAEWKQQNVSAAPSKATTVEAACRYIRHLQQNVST
| Strand | fluorescence intensity [a.u.] |
| --- | --- |
| CTACGCGGGCTATTGCAGGTGAGCAAGACATAGAAT | 4180 |
| AAAAGTTTTGAAAAACACGTGCCGATGATTTTTTGT | 17600 |
| CTTCTGTAAATTTGAACAGTGGGTGGACGCGCCCCG | 3650 |
| GAAGGAGCGGGGCGTCATGCTAACCAGGAATGGAAG | 5360 |
| CGGCCGGGTGAAAAGCACGTCGTTTAGGGGGGACCC | 5140 |
| CAAGTTGTCTTTCAGCACATGGAGAGGTGGGAGTGC | 8920 |
| TGACTTGAATTCCAACACGTGGATTATTTCCTCATT | 16500 |
| AAGCTCGTTGGTTTGCACGTATCTTAGGCTTCACTA | 5640 |
| CGGTTGAGACTTTAGCACGTGCTTTAGTTTATTTAT | 19300 |
| GATACGCTCCTTGGCCTCGTGGTGATGCGCCAAAAC | 9990 |
| CTTCTGTAAATTTGCATGGTGGGTGGACGCGCCCCG | 4500 |
| CGGGGTTAAGTTTGGTAGGTGGGTGGCTTGCAGCAG | 4400 |
| CATACCCAACCTTTTCACGTGACGTAAGATATTTGT | 14000 |
| TGCGCAACAACTTGTCACGGGACTTTATGTCTAGAA | 5400 |
| AACTTCAACACCATCACCGTGAAGAACATAGAATTT | 4620 |
| TGTTTGGGTTTTTAGCACGTCGTACACTGGCCTTTA | 6120 |
| CATACCCAACCTTGTGACGTGGGTGAAGATATTTGT | 7260 |
| TTTTTTCTGTTAGGGCACATGACAATTGCCTATTAT | 9300 |
| GGGATCGAAAGAAGGGGCGTGGTGAGAAGGGTAACG | 9400 |
| GCAAATCCTCCCACACATGTGACGCTTTGAATCAAG | 10300 |
| CTCTTCCCTCTATTTCACGTGAGTAAGCACAGAATA | 11900 |
| GTCTTGTCTCATTGTCACTGCACTTTCCCCACTTCA | 4650 |
| AAAGCGGTAATTTGGTAAGTGGGTGCAGATATCTAT | 4070 |
| CTAACGAAGGTTTGTCAGGTGGGTGACAAGCCAAGT | 5120 |
| TGTTAGTCAATTGCTCGCGTGGGACGACATTCTCTT | 8850 |

Set 2 — method: protein binding microarray; form: double-stranded DNA, one strand shown; sample: in vitro; concentration: not given; relative to: not given; direction: higher = stronger binding
Target: Histone acetyltransferase KAT6A, both winged helices, GST fusion (KAT6A, Homo sapiens, UniProt Q92794, residues 1-181)
Notes: 8-mer, flanks averaged, mean of 2 arrays, mostly near background
Target sequence (chain): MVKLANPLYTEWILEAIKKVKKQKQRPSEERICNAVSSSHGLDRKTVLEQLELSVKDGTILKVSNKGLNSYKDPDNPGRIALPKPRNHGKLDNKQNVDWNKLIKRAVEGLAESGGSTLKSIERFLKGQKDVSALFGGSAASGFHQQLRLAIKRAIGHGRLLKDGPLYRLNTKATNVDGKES
| Strand | E-score |
| --- | --- |
| AGTTGCTC | -0.189 |
| CTCGACAA | -0.13 |
| ACTGGTCA | -0.0712 |
| TCCGCACA | 0.168 |
| GATCCTGC | -0.0825 |
| AGACCATG | -0.191 |
| GGAACTTA | 0.0152 |
| GCGTTGGA | 0.0803 |
| ACTGGCCA | -0.193 |
| ACAGGCGT | -0.0431 |
| AATGAATA | -0.0681 |
| CGTTTTGC | 0.13 |
| AGAGTCGC | 0.00494 |
| ACCCGCTA | 0.19 |
| AAATCGGC | 0.241 |
| CTGAGAGA | -0.166 |
| CCTGCCTC | -0.277 |
| GGTAGACA | -0.0586 |
| AAGGGCCA | -0.274 |
| ATCCGGTG | 0.158 |
| AAGATGAG | -0.219 |
| AGCAAGTA | -0.158 |

Set 3 — method: RNA Bind-n-Seq; form: RNA; sample: in vitro; concentration: 365 nM; relative to: no-protein control; direction: higher = stronger binding
Target: RNA binding protein fox-1 homolog 2, RRM domain, GST-SBP tag (RBFOX2, Homo sapiens, UniProt O43251-10, residues 100-194)
Notes: natural RNA segment, single round, ends assumed
Constant ends, left off below: GGGAGUUCUACAGUCCGACGAUC … UGGAAUUCUCGGGUGCCAA
Residues (chain): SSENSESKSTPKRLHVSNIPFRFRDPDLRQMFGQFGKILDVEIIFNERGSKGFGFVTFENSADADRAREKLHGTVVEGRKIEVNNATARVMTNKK
| Strand | RBNS enrichment (R) |
| --- | --- |
| UAAGCUCCCAAGAUCUAUGUUCCUGGGAGUUUCCCAAACUCAUGAUGGAGUUGGUGACAAGAGCAGAGGAGCAAGAAUCCCUGCAAGCAGUAGACUGGUUUCCACUGGAG | 0.212 |
| GCAUCCUCUUGGACCAGGGCUAGAAUGGGGAUUUCAGGUUUCUAUGAGCCUCCCCAUUACCCCUAAAGUAGAACAUUUUUUAAAUUGUGUUGCCACCACUUCUAAAAAUU | 20.6 |
| CAAUCAGGGGUCACUUUUAUGAACAGCAUGCAGAAAAAUAGAUCUUCGGGAAUGUUUAAGAUCGAUCAGUAAAUAACUUCCCAGAAGACCACCCUAUGUCUAUUAAGCCU | 26.4 |
| GAAAUGUUGACACUCAGUGAUGUGCUGUGCAUCUUGAGGUCAGCAGGCACUAACCUGGCACCUUUUACUCCAGCUGGUAGAGCUAGAGCUAAUGUGUACAGGUGUCCUGG | 0.513 |
| CAUCCAGAAUAGAAUCUGUAACAAGAGACAUGGGACAUAAGCCAGAGAACUCAAACAGCCCUUUAAAGGAGCUCUCGGCAACCAACACUGCCACUCUAUGAGAAAACCCU | 0.297 |
| GGCACGGGGUGAAGAAUCUGCCCAUCAAGGUGGGUGGGCCUCAUGUCGCUGCCCCCACCAGAGUCCUAAAACCUGGAUGGACUUGGACGGGACAAGAGGCCUGGACUGAG | 0.409 |
| UGAAUGAUGCAUUAAUUACUGACUGUCCUAGUACAUUGGAAGCUUUUGUUUAUAGGAACUUGUAGGGCUCAUUUUGGUUUCAUUGAAACAGUAUCUAAUUAUAAAUUAGC | 1.14 |
| CUUCUGGCUCCUGUGAGGGCACUGUAUUGUCCAGACGCUUGGCAACGACUCUGCCUGCAAGUGGCAAAUACCAACAUAACCACAUCUUCCUUUUAGUUGCCACAAAUAUU | 0.858 |
| GCUAUGGCCCUAUGUCACUCUGCCCUCUUGGUUUCUGCUGCCCUACGGCAGCUGGUGGAAUCUAUUGGGCAAAAAGUCCUGCAACCCUCUUACCUCCAGGCUUUGGUGCU | 0.168 |

Set 4 — method: protein-binding microarray; form: double-stranded DNA, one strand shown; sample: in vitro; concentration: 2200 nM top; notes: 60-bp whole probe; with: salmon DNA 0.4 mg/ml; relative to: random background probes; direction: higher = stronger binding; constant ends, left off below: GCCTAGCAC … GTCTTGATTCGCTTGACGCTGCTG
Target: Interferon regulatory factor 7, full length, phosphomimetic (IRF7, Homo sapiens, UniProt Q92985, residues 1-503, S471D/S472D/S475D/S476D/S477D/S483D/S484D/S487D)
Construct (chain): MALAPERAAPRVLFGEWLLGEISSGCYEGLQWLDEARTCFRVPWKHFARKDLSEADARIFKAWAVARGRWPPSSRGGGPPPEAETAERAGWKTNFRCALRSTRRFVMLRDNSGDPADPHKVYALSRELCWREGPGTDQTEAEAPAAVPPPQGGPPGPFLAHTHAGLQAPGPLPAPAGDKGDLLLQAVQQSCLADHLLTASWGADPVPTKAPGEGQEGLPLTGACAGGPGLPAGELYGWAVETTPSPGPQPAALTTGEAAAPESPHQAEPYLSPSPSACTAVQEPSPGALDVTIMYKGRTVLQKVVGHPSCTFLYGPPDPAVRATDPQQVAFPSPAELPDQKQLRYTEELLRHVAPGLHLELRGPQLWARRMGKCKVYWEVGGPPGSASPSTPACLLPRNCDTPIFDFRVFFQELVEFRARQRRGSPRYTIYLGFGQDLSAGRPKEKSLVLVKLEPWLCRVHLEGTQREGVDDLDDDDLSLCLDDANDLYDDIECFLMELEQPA
| Strand | fitted relative affinity |
| --- | --- |
| TTAGATAGCGGGACTGGATTAGTGCTA | -0.662 z-score |
| TCACATCTTGTTCCCAGACTGTGCTAG | 2.24 z-score |
| GACGATTTCAGACTGGAGAAGTGCTAG | 0.0751 z-score |
| TTGGGTATCGGACTGGGTTAGTGCTAG | 0.166 z-score |
| CTTTCTTTATGTACTCTCTCCGTGCTA | 2.62 z-score |
| CAGCTTCTAATATTCATTTTGTGCTAG | 1.18 z-score |
| GACGAACTGATTCTCGAGACGTGCTAG | 0.26 z-score |
| AAGCAAGGTGGAGAAGAGAAGTGCTAG | -1.46 z-score |
| GACGGACCGGGGACTGGGGACGTGCTA | -0.841 z-score |
| TCATTTTTCCCTCTGGAACTGTGCTAG | 2.55 z-score |
| GACGTACTGGGGTATCGAGACGTGCTA | -0.143 z-score |
| TTAGGTTTCGGATCCGGTTAGTGCTAG | 5.91 z-score |
| GACGGATTGCTACTGCTGACGTGCTAG | 0.196 z-score |
| TTAGAACTGGACACTGGGTTAGTGCTA | -0.696 z-score |
| ATGTGTTTACATATGTTTTTGTGCTAG | 1.4 z-score |
| TTAGGTTTCGGTTCAGGTTAGTGCTAG | 12.9 z-score |
| TTAGATTCCGGTTTCGATTAGTGCTAG | 7.03 z-score |
| GACGGTAGCGGGACTGGGGACGTGCTA | -0.957 z-score |
| TTGTAGATGCCTTTCTCTTGGTGCTAG | 1.17 z-score |
| GACGAGATCGGGTATCGAGACGTGCTA | 0.0456 z-score |
| GAGCTCCTCCTTCTCTAACCGTGCTAG | 1.34 z-score |
| TTAGGTCTCGTTCTCGGTTAGTGCTAG | 1.54 z-score |
| GACGAGATCAGTCTCGAGACGTGCTAG | 0.227 z-score |
| GACGCTCTCCTACTGCTGACGTGCTAG | 1.19 z-score |

Repeated from above (set 4):
| Strand | fitted relative affinity |
| --- | --- |
| TTAGGTTTCGGTTCAGGTTAGTGCTAG | 12.9 z-score |
| TTAGAACTGGACACTGGGTTAGTGCTA | -0.696 z-score |
| GACGCTCTCCTACTGCTGACGTGCTAG | 1.19 z-score |
| CTTTCTTTATGTACTCTCTCCGTGCTA | 2.62 z-score |
| TCACATCTTGTTCCCAGACTGTGCTAG | 2.24 z-score |
| GACGGATTGCTACTGCTGACGTGCTAG | 0.196 z-score |
| TTGGGTATCGGACTGGGTTAGTGCTAG | 0.166 z-score |
| GACGATTTCAGACTGGAGAAGTGCTAG | 0.0751 z-score |
| GACGGTAGCGGGACTGGGGACGTGCTA | -0.957 z-score |
| ATGTGTTTACATATGTTTTTGTGCTAG | 1.4 z-score |
| AAGCAAGGTGGAGAAGAGAAGTGCTAG | -1.46 z-score |
| TTGTAGATGCCTTTCTCTTGGTGCTAG | 1.17 z-score |
| GAGCTCCTCCTTCTCTAACCGTGCTAG | 1.34 z-score |
